# Measured values gathered from unrelated publications.
# Each numbered part is a random draw from the data of one study; scales do not carry over between parts.

# Series 1
# Target: Histone acetyltransferase KAT6A, winged helix 1, GST fusion (KAT6A, Homo sapiens, UniProt Q92794, residues 1-85)
# Method: protein binding microarray
# Molecule type: double-stranded DNA, one strand shown
# Medium: in vitro
# Concentration: not given
# Setting: 8-mer, flanks averaged, mean of 2 arrays, mostly near background
# Baseline: not given
# Reading: higher = stronger binding
# Residues (chain): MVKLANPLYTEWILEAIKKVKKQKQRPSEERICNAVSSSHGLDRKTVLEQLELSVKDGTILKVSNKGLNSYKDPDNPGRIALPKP
Strand,E-score
ACCGGTGG,0.111
AGGCAAGC,-0.035
CCACTCAA,-0.256
AATCTAAC,-0.0263
ACGATGCG,0.133
ACTAGACG,0.0505
CCCAATTA,-0.13
GTAGCGAC,0.187
CCCCAACG,-0.136
CGGACGCA,0.29
GAACGGCC,0.236
GGTATATA,-0.0494
AACGCGGA,0.266
AATTAGGT,-0.118
CGCACGGA,0.363
GAGCCAGC,-0.0103
ACCTAAAG,-0.148
CTTCATTC,-0.186
TATAGTCA,-0.124
AACAACGT,-0.125
CCCTAAGG,-0.228
ATTACACG,0.127
GCAGTGCA,-0.146
CACAGATG,-0.217
CTCCGCCC,0.188

# Series 2
# Target: Prothrombin, mature alpha-thrombin (F2, Homo sapiens, UniProt P00734)
# Method: aptamer microarray, sandwich
# Molecule type: DNA with 2'F-ANA
# Medium: in vitro
# Concentration: 200 nM
# Setting: whole 15-mer aptamer, many near background
# Added: Cy3 exosite-II aptamer, 400 nM
# Reading: higher = stronger binding
# Strand: GGTTGGTGTGGTTGG
Modification,mean fluorescence intensity
2'F-ANA at 1 2 5 8 10 12 15,48.8 a.u.
2'F-ANA at 4 8 12,670 a.u.
2'F-ANA at 2 3 4 5 7 9 11 13 15,60.7 a.u.
2'F-ANA at 7 13 14 15,213 a.u.
2'F-ANA at 2 3 4 5 6 7 8 12 14 15,59.2 a.u.
2'F-ANA at 1 2 3 5 7 11,58.8 a.u.
2'F-ANA at 3 4 7 8 11 13,672 a.u.
2'F-ANA at 3 6 8 9 10 13 14 15,341 a.u.
2'F-ANA at 2 3 5 6 7 8 10 11 12 13 14,53.2 a.u.
2'F-ANA at 2 5 6 11 13 14,44.8 a.u.
2'F-ANA at 3 7 9 11 12 13,1070 a.u.
2'F-ANA at 2 11 12 14 15,213 a.u.
2'F-ANA at 1 2 5 7 8 10 11 12 14,45 a.u.
2'F-ANA at 4 8 9 10 11 15,74.1 a.u.
2'F-ANA at 1 3 4 6 7 8 9 12 14 15,90.6 a.u.
2'F-ANA at 1 5 7 8 9 10 12 13 14,52.5 a.u.
2'F-ANA at 2 3 5 6 9 10 12 13 15,52.8 a.u.
2'F-ANA at 2 4 6 7 8 10 11 13 14 15,57.1 a.u.
2'F-ANA at 1 6 8 10,53.8 a.u.
2'F-ANA at 1 2 3 4 5 10 12 13,59.3 a.u.
2'F-ANA at 6 7 9 10 12 14,109 a.u.
2'F-ANA at 1 2 3 5 10 11 13 14 15,50.4 a.u.
2'F-ANA at 1 2 4 5 6 7 10 11 12 13,49 a.u.

# Series 3
# Target: Interferon regulatory factor 3, full length, phosphomimetic (IRF3, Homo sapiens, UniProt Q14653, residues 1-427, S386D/S396D/S398D/S402D/T404D/S405D)
# Method: protein-binding microarray
# Molecule type: double-stranded DNA, one strand shown
# Medium: in vitro
# Concentration: 2540 nM top
# Setting: 60-bp whole probe
# Added: salmon DNA 0.4 mg/ml
# Baseline: random background probes
# Reading: higher = stronger binding
# All sequences stand within: GCCTAGCAC … GTCTTGATTCGCTTGACGCTGCTG
# Construct (chain): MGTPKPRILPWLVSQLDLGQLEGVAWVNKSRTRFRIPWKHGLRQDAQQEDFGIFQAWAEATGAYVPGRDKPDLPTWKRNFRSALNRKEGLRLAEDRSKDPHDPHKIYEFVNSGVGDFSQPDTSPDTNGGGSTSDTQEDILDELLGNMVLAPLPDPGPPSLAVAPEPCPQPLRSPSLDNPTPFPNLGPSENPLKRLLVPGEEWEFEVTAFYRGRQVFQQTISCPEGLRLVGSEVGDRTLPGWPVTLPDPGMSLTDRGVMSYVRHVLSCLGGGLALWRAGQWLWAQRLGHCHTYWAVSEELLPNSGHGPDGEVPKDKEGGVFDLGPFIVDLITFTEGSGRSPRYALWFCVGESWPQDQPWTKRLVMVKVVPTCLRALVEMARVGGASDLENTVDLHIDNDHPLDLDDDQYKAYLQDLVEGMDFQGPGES
Strand,fitted relative affinity
GACGTTATCCTTCTCCTGACGTGCTAG,4.57 z-score
GACTATTCCAGTTTCGAGACGTGCTAG,2.98 z-score
GGGTCACTCAATCTCAACAGGTGCTAG,0.113 z-score
AGAATTTCCACTTTGACTTAGTGCTAG,2.02 z-score
TTGGGTATCGACACTGGGTTAGTGCTA,-0.449 z-score
TTAGAACTGGGGACCGGATTAGTGCTA,-0.472 z-score
TCAGCTTTCCAATTCTCACTGTGCTAG,4.34 z-score
TCACCTCCCTAATTCTGACTGTGCTAG,0.536 z-score
TTACGTCTCCTTTTCCTTTAGTGCTAG,4.74 z-score
GGCGGACTGGACTTTCGGGACGTGCTA,-0.157 z-score
GACGGTTTCTGTATCGGGACGTGCTAG,4.73 z-score
TCTTTTTCCTAATTGAACCCGTGCTAG,4.3 z-score
GACGGTATCCTACTGCTGATGTGCTAG,2.51 z-score
GACGATTCCAGTTTCGTGACGTGCTAG,2.56 z-score
GACGGTATCGACTATCGAGACGTGCTA,0.702 z-score
GACCGACTGGGTATCGGGACGTGCTAG,0.344 z-score
GCCGATTTCAGTTTCGAGACGTGCTAG,4.9 z-score
GACGATATCAATCTCGAGACGTGCTAG,0.819 z-score

# Series 4
# Target: Ras GTPase-activating protein-binding protein 1, full length (G3BP1, Homo sapiens, UniProt Q13283)
# Chain of UniProt Q13283 (whole entry, looked up): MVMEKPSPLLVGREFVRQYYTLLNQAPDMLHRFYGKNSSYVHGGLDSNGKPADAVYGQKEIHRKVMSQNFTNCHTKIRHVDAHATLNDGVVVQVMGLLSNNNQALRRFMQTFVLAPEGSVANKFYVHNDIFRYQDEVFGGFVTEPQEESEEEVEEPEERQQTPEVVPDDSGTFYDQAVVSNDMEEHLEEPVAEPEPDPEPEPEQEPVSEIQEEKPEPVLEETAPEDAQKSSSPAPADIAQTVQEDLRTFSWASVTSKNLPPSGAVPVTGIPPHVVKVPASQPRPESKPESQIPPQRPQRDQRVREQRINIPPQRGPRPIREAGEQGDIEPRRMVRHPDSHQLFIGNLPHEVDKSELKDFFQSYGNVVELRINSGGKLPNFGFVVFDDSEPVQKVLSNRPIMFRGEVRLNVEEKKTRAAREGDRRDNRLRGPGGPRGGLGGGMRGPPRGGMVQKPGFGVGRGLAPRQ
# Method: RNA Bind-n-Seq
# Molecule type: RNA
# Medium: in vitro
# Concentration: 200 nM
# Setting: whole 134-nt RNA, ends assumed
# Added: 150 mM KCl
# Baseline: input library
# Reading: higher = stronger binding
# All sequences stand within: GGGAGUUCUACAGUCCGACGAUC … UGGAAUUCUCGGGUGUCAAGG
Strand,log2 enrichment
GCAGGAAGUAAAAACAAAUGGAAAUGCUCCGGAUAGUGGCAGGGGUGGGGGUUGCUAAGGAAAGGGUGGGAUGGGAGUGGGUAAAGAGUU,1.37
AGUCCUGUGCUACACAUCGUAUGUACCGAAUCGGGCCCCCGGCCCCCGGGGCCCCCGGAAAGUAUUAUGUUACGCCGUUCGGAUCUGCAC,-0.946
CUCAAGUCCUGUGCUACACAUCGUAUGUACCGAAUCGGGAAGGAAGGAAGGGGAAAGUAUUAUGUUACGCCGUUCGGAUCUGCACUUCCA,-0.11
UGGGAGGUGGCUUUUGUUUAUUUUUUUAGCUCAUUUCCAGGGGUGGGAAUUUUUUUUUAAUAUGUGUCAUGAAUAAAGUUGUUUUUGAAA,0.229
UCAAGUCCUGUGCUACACAUCGUAUGUACCGAAUCGGGAAAGGGAAAGGGAGGGAAAGUAUUAUGUUACGCCGUUCGGAUCUGCACUUCC,0.999
ACCAAAAAGGUGGGCAUCUUUGGGAAGUGGGGCAAGGGGGGGAUAGGGAGGGGGGUAACACUUUGGGAACAGGUGGUCCCAGGUCGUUUC,1.1
UCAAGUCCUGUGCUACACAUCGUAUGUACCGAAUCGGGGAAAGGGAAAGGAAAGGAAAGUAUUAUGUUACGCCGUUCGGAUCUGCACUUC,-0.712
UGGCCCUGGUGGCAUGCGGGGAGGAAGAGGUGGCCUCAUGGAUCUUGGUGGUCCCGGUGGAAUGUUCAGAGGUGGCCGUGGUGGAGACAG,0.256
CUCAAGUCCUGUGCUACACAUCGUAUGUACCGAAUCGGUUGGUUGGGGUUGGGGAAAGUAUUAUGUUACGCCGUUCGGAUCUGCACUUCC,-0.0814
CAAGUCCUGUGCUACACAUCGUAUGUACCGAAUCGGGUGGGUUUUUUUGGGAGGGAAAGUAUUAUGUUACGCCGUUCGGAUCUGCACUUC,0.362

# Excerpt of the above (series 4):
Strand,log2 enrichment
ACCAAAAAGGUGGGCAUCUUUGGGAAGUGGGGCAAGGGGGGGAUAGGGAGGGGGGUAACACUUUGGGAACAGGUGGUCCCAGGUCGUUUC,1.1
AGUCCUGUGCUACACAUCGUAUGUACCGAAUCGGGCCCCCGGCCCCCGGGGCCCCCGGAAAGUAUUAUGUUACGCCGUUCGGAUCUGCAC,-0.946
CUCAAGUCCUGUGCUACACAUCGUAUGUACCGAAUCGGGAAGGAAGGAAGGGGAAAGUAUUAUGUUACGCCGUUCGGAUCUGCACUUCCA,-0.11
UGGCCCUGGUGGCAUGCGGGGAGGAAGAGGUGGCCUCAUGGAUCUUGGUGGUCCCGGUGGAAUGUUCAGAGGUGGCCGUGGUGGAGACAG,0.256
